Measured values pooled from the literature.
Protocols differ between the studies behind these lines. “And” joins repeats or separate records; there may be more than shown. ± gives the spread as reported.
GLP1R: Glucagon-like peptide 1 receptor (GLP1R, Homo sapiens, UniProt P43220)

Compound	target	assay	system	conditions	how to read	endpoint	value
CCSc1nc2c([nH]1)c(=S)n(C)c(=S)n2C	Androgen receptor (AR, Homo sapiens, UniProt P10275)	reporter gene, antagonist, PSA-luciferase	HeLa-A6	10 µM, 24 h, together with: 5 nM dihydrotestosterone	baseline: maximal activity	remaining activity	86%
CCCN(CC(=O)N(CCC)CC(=O)N(CCC)CC(=O)N(CC(N)=O)Cc1cn(CCCNC(=O)CCCOc2cccc(-c3nc4ccc(-c5nc6ccc(N7CCN(C)CC7)cc6[nH]5)cc4[nH]3)c2)nn1)C(=O)CNCc1cn(CCCNC(=O)CCCOc2cccc(-c3nc4ccc(-c5nc6ccc(N7CCN(C)CC7)cc6[nH]5)cc4[nH]3)c2)nn1	MBNL1–r(CUG)109 complex	MBNL1 displacement	0.65 pmol r(CUG)109	unit not given, together with: yeast tRNA 3.7 µM	baseline: monomer 2 IC50 per module	multivalent effect	3
CC(C)C[C@H](NC(=O)[C@H](Cc1ccccc1)NC(=O)OCc1ccccc1)C(=O)N1CCC[C@H]1C(=O)N[C@@H](CCCCNC(=O)OC(C)(C)C)C(N)=O	Fibroblast growth factor 14, with Nav1.6 (Homo sapiens, UniProt Q92915)	FGF14-Nav1.6 complex formation, split-luciferase complementation	HEK293 expressing CLuc-FGF14 and CD4-Nav1.6-NLuc	50 µM, 1 h, 37 °C, 0.5% DMSO	baseline: DMSO	luminescence	75 ± 6%
CC(C)CC(NC(=O)C(NC(=O)NC(C(=O)O)C(C)C)C1CCNC(=N)N1)C(=O)NCCCNC(C(=O)O)C(OC1OC(CN)C(O)C1O)C1OC(n2ccc(=O)[nH]c2=O)C(O)C1O (stereo not shown)	mraY (Aquifex aeolicus, UniProt O66465, F262A)	ITC	–	concentration not given, F262A mutant	–	binding stoichiometry	0.77 ± 0.07 sites
CC(Oc1cc(-c2ccccc2)nc2ccncc12)C(=O)N(C)c1ccccc1 (stereo not shown)	Tspo (Rattus norvegicus, UniProt P16257)	binding	rat brain homogenate	pKi minus clogD	–	lipophilic efficiency	5 ± 0.1
COc1cc(C(=O)NC2CCC(N3CCN(CC4CCC5(CCCC5)C4)CC3)CC2)c(F)cc1Nc1ncc2c(n1)N(C1CCCC1(F)F)CC(F)(F)C(=O)N2C (stereo not shown)	ABL2 (Homo sapiens, UniProt P42684)	cell-free assay, TR-FRET	–	10 µM	–	inhibition	0.08%
O=C(O)C1OC(OC2C(C(=O)O)OC(OC3C(C(=O)O)OC(OC4C(C(=O)O)OC(O)C(O)C4O)C(O)C3O)C(O)C2O)C(O)C(O)C1O (stereo not shown)	Beta-lactoglobulin (LGB, Bos taurus, UniProt P02754, A134V/G80D)	isothermal titration calorimetry	–	pH 2.65	–	ΔH	-1.2 kcal/mol
C=CC(=O)Oc1ccc(Cl)cc1C(=O)Nc1ccc([N+](=O)[O-])cc1Cl	Androgen receptor, AR-V7 isoform (AR, Homo sapiens, UniProt P10275)	degrader	–	concentration not given, together with: cycloheximide 50 µg/mL	baseline: untreated cells	protein degradation	increased
CC(=O)N/C(N)=N/C(=N\S(=O)(=O)c1ccc(C(F)(F)F)cc1)N1C[C@H](c2ccccc2)C(c2ccc(Cl)cc2)=N1	CNR1 (Homo sapiens, UniProt P21554, S123A)	β-arrestin 2 signalling	–	concentration not given, S123A mutant	baseline: wild type	potency reduction	4 fold
C=C1CN(S(=O)(=O)c2ccc(C)cc2)CCCN(Cc2ccccc2)CCCN(S(=O)(=O)c2ccc(C)cc2)C1	CD4 (Homo sapiens, UniProt P01730)	pulse-chase	CHO-K1 transfected with CD4	10 µM, 45 min chase	–	mature CD4 level	decreased
COc1ccc(/C=C/C(=O)NC[C@H]2O[C@H](OC)[C@@H](O)[C@@H](O)[C@@H]2O)cc1OC	lecB (Pseudomonas aeruginosa, UniProt Q9HYN5)	ITC	–	concentration not given, 25 °C	–	binding stoichiometry	1 and 1.03
CCC1(CC)C[C@@H](NC(=O)Nc2cccc3c(C)nccc23)c2cc(F)ccc2O1	Trpv1 (Rattus norvegicus, UniProt O35433)	proton-induced calcium influx, potentiator	CHO, transfected	pH 5.0	–	lowest potentiating concentration	< 1 nM
CCOCCNC(=O)N1CCC[C@H](c2n[nH]c(-c3ccccc3)n2)C1	Aromatase (CYP19A1, Homo sapiens, UniProt P11511)	enzyme activity, inhibitor, MFC to HFC conversion	–	20 µM, together with: MFC substrate	–	apparent Vmax	0.56 pmol HFC/min/pmol P450
NCCO[C@H]1[C@H](O)[C@@H](O)[C@@H]2O[C@@H]2[C@@H]1C(=O)O	Heparanase (HPSE, Homo sapiens, UniProt Q9Y251)	inhibitor, competitive ABPP	human platelet lysate	–	–	maximum non-inhibiting concentration	> 100 µM
CNc1ccccc1C(=O)O[C@H]1C[C@H](n2cnc3c(N)ncnc32)O[C@@H]1COP(=O)(O)OP(=O)(O)O	Unconventional myosin-Va (Gallus gallus, UniProt Q02440, D297C/G292C/I296C/S293C/V295G)	stopped-flow FRET	–	4 °C, together with: MgCl2 10 mM	–	pocket reverse rate constant	0.37 ± 0.03 s⁻¹
CN(C1COC1)C(C)(C)/C=C(\C#N)C(=O)N1CCC[C@H]1Cn1nc(-c2ccc(Oc3ccccc3)cc2F)c2c(N)ncnc21	Tyrosine-protein kinase (Rattus norvegicus, UniProt Q5S255)	–	rat, PBMC	oral, 40 mg/kg, 24 (unit not given)	–	receptor occupancy	41 ± 15%
Cn1ccc2c(N3CCN(CCCCOc4ccc5c(c4)NC(=O)CC5)CC3)cccc21	DRD2 (Homo sapiens, UniProt P14416, I184A)	competitive binding kinetics	–	together with: [3H]N-methylspiperone	baseline: I184A mutant over wild type	off-rate fold increase	8.7 fold
O=C(CCCC[C@@H]1SC[C@@H]2NC(=O)N[C@@H]21)NCCCNC(=O)Cn1nc(-c2ccccc2)c2c(Cl)c(-c3ccccc3)nnc21	HSP90AB1 (Homo sapiens, UniProt P08238)	peptide conjugation	–	–	–	covalent conjugation	~2%
[64Cu+2].c1cnc(CNCc2ccc(CN3CCCN4CCNCCCN(CC4)CC3)cc2)nc1	CXCR4	–	NOD/SCID mouse, U87 and U87-stb-CXCR4 xenografts, bladder	iv, 120 min, ex vivo	–	tissue uptake	2.05 ± 0.98 %ID/g

Compound	target	assay	system	conditions	how to read	endpoint	value
O=C(O)c1ccc(/C=C2\SC(=S)N(Cc3cccc(C(F)(F)F)c3)C2=O)cc1	NLR family CARD domain-containing protein 4 (Homo sapiens, UniProt Q9NPP4)	inhibitor	–	1 µM	–	ATPase activity	no effect
Nc1ncnc2c1ncn2[C@@H]1O[C@H](COP(=O)(O)NP(=O)(O)OP(=O)(O)O)[C@@H](O)[C@H]1O	MAT2A (Homo sapiens, UniProt P31153)	AdoMet formation, substrate	–	–	baseline: ATP over analogue	kcat fold decrease	~100 fold
Cc1ncsc1-c1ccc(C(CO)NC(=O)C2CC(O)CN2C(=O)C(C(C)C)n2cc(-c3ccc(COc4c(-c5c(C)c(F)cc6[nH]ncc56)c(C5CC5)cc5c(N6CC7CC6CN7)nc(OC6CCOCC6)nc45)cc3)nn2)cc1 (stereo not shown)	GTPase KRas (KRAS, Homo sapiens, UniProt P01116, G12D)	degrader	mouse PK-59 xenograft, tumour	intravenous, 30 mg/kg single, 144 h	–	protein degradation	63%
Nc1nc2c(ncn2[C@@H]2O[C@@H]3COP(=O)(O)O[C@H]3[C@H]2O)c(=O)[nH]1	PDE5A (Homo sapiens, UniProt O76074)	hydrolysis, substrate, Lumit	–	–	–	specific activity	78 nmol/min/mg
C[C@@H]1NC(=O)[C@H](CC(N)=O)NC(=O)c2cc3ccccc3cc2NC(=O)[C@H](Cc2ccccc2)NC(=O)[C@H](CCCNC(=N)N)NC(=O)[C@@H]2CCCN2C(=O)[C@H]2CCCN2C(=O)[C@H](Cc2ccccc2)NC1=O	Melanocortin receptor 4 (Mus musculus, UniProt P56450)	antagonist, cAMP β-galactosidase reporter	–	no activity up to, together with: MTII	–	antagonist activity	> 100 µM
O=C(Nc1nc2ccccc2s1)C1CCN(S(=O)(=O)c2ccc(F)c(Cl)c2)CC1	Napepld (Mus musculus, UniProt Q8BH82)	enzyme activity	RAW264.7	concentration not given, together with: PED-A1 substrate	–	activity	no effect
Cc1cc(=O)oc2cc(NC(=O)CCCCCCCC(=O)NO)ccc12	HDAC8 (Homo sapiens, UniProt Q9BY41)	isothermal titration calorimetry	–	concentration not given, pH 7.5, 25 °C	–	binding enthalpy (ΔH)	-4.6 ± 0.5 kcal/mol
COC(=O)c1ccc(CNC(=O)[C@@H]2C[C@@H](O)CN2C(C)=O)cc1	von Hippel-Lindau disease tumor suppressor, with Elongin B/C (VHL, Homo sapiens, UniProt P40337)	isothermal titration calorimetry	–	25 °C	–	entropic term (−TΔS)	-0.53 ± 0.02 kcal/mol
CN[C@@H](C)C(=O)N[C@H]1CCCCNC(=O)[C@H](Cc2ccccc2)NC(=O)[C@@H]2CCCN2C(=O)[C@@H](NC(=O)[C@H](C)NC)CCCCNC(=O)[C@H](Cc2ccccc2)NC(=O)[C@@H]2CCCN2C1=O	E3 ubiquitin-protein ligase XIAP, BIR3 domain (XIAP, Homo sapiens, UniProt P98170)	analytical gel filtration	–	1.5-fold molar excess, BIR3 domain protein	–	apparent molecular mass	31.4 kDa
O=C1Nc2c(ccc(Cl)c2Cl)/C1=N/O	Calm1/Kcnn2, SK2-a isoform (Rattus norvegicus, UniProt P0DP29+P70604, A477V/L480M)	channel current, potentiator, inside-out patch clamp	–	together with: 200 nM Ca2+	baseline: wild type over mutant	EC50 shift	3.4 fold
COc1cccc(C(=O)N[C@H]2[C@@H](O)[C@@H](CO)O[C@@H](S[C@@H]3O[C@H](CO)[C@H](O)[C@H](NC(=O)c4cccc(OC)c4)[C@H]3OS(=O)(=O)O)[C@@H]2O)c1	Galectin-3 (LGALS3, Homo sapiens, UniProt P17931)	ITC	–	–	–	ΔH	-13.24 ± 0.0717 kcal/mol
CN(Cc1cnc2ccccc2n1)C(=O)Nc1nc(-c2ccco2)n[nH]1	Single-stranded DNA cytosine deaminase (AICDA, Homo sapiens, UniProt Q9GZX7)	deaminase activity, inhibitor, alkaline cleavage	purified GST-AID	500 to 840 µM, pH 7.2, 37 °C, DMSO 100%	–	remaining activity	8.3%
COc1ccc(-c2cc(C(F)(F)F)nc(S(=O)(=O)CCCC(=O)Nc3c(F)cc(F)cc3Br)n2)cc1OC	GLP1R	cAMP, agonist	–	–	–	Emax	56%
O=C(O)[C@H]1O[C@@H](O[C@H]2C=Cc3c(cc4ccc5cccc6c7ccccc7c3c4c56)[C@@H]2O)[C@H](O)[C@@H](O)[C@@H]1O	UGT1A10 (Homo sapiens, UniProt Q9HAW8)	glucuronidation, substrate	UGT-expressing HEK293 homogenate	normalized to UGT expression	–	kcat/Km	43.3 ± 8.33 M⁻¹ s⁻¹
CC[C@H](C)[C@H](NC(=O)[C@@H](NC(=O)[C@H](Cc1ccc(O)cc1)NC(=O)[C@H](Cc1ccc(O)cc1)NC(=O)[C@H](CC(N)=O)NC(=O)[C@H](CCC(=O)O)NC(=O)[C@H](Cc1ccccc1)NC(=O)[C@@H](NC(=O)[C@H](CO)NC(=O)[C@H](CCC(=O)O)NC(=O)[C@H](CCCCN)NC(=O)[C@H](Cc1ccccc1)NC(=O)[C@@H](N)CCCCN)C(C)C)C(C)C)C(=O)N[C@@H](Cc1ccc(O)cc1)C(=O)N[C@@H](CO)C(=O)N[C@@H](CO)C(=O)N[C@@H](CCSC)C(=O)N[C@@H](CC(C)C)C(=O)N[C@@H](Cc1ccc(O)cc1)C(=O)N[C@@H](CCCNC(=N)N)C(N)=O	Fibroblast growth factor 14 (Homo sapiens, UniProt Q92915)	–	–	–	–	koff	0.0464 ± 0.0072 s⁻¹
COc1ccc(-c2cc(C(F)(F)F)nc(NCc3ccc(Cl)cc3)n2)cc1OC	GLP1R	affinity cooperativity, allosteric modulator	HEK-293T overexpressing GLP1R	together with: GLP-1	–	cooperativity factor alpha	3 to 5
O=Cc1c(O)c(C=O)c(O)c(C=O)c1O	CD209 antigen (CD209, Homo sapiens, UniProt Q9NNX6)	activator, plate-based HRP	–	500 µM, overnight, 4 °C or RT	baseline: DMSO control	HRP binding	≥ 50%
COc1cc(OC)cc(-c2nc(Nc3nc4ccccc4o3)ncc2C#N)c1	Grm5 (Rattus norvegicus, UniProt P31424)	calcium mobilization, negative allosteric modulator	–	together with: glutamate EC80	baseline: maximal glutamate response	maximal response	24 ± 10%

Excerpt of the above:
Compound	target	assay	system	conditions	how to read	endpoint	value
CCCN(CC(=O)N(CCC)CC(=O)N(CCC)CC(=O)N(CC(N)=O)Cc1cn(CCCNC(=O)CCCOc2cccc(-c3nc4ccc(-c5nc6ccc(N7CCN(C)CC7)cc6[nH]5)cc4[nH]3)c2)nn1)C(=O)CNCc1cn(CCCNC(=O)CCCOc2cccc(-c3nc4ccc(-c5nc6ccc(N7CCN(C)CC7)cc6[nH]5)cc4[nH]3)c2)nn1	MBNL1–r(CUG)109 complex	MBNL1 displacement	0.65 pmol r(CUG)109	unit not given, together with: yeast tRNA 3.7 µM	baseline: monomer 2 IC50 per module	multivalent effect	3
CC(C)C[C@H](NC(=O)[C@H](Cc1ccccc1)NC(=O)OCc1ccccc1)C(=O)N1CCC[C@H]1C(=O)N[C@@H](CCCCNC(=O)OC(C)(C)C)C(N)=O	Fibroblast growth factor 14, with Nav1.6 (Homo sapiens, UniProt Q92915)	FGF14-Nav1.6 complex formation, split-luciferase complementation	HEK293 expressing CLuc-FGF14 and CD4-Nav1.6-NLuc	50 µM, 1 h, 37 °C, 0.5% DMSO	baseline: DMSO	luminescence	75 ± 6%
CC(C)CC(NC(=O)C(NC(=O)NC(C(=O)O)C(C)C)C1CCNC(=N)N1)C(=O)NCCCNC(C(=O)O)C(OC1OC(CN)C(O)C1O)C1OC(n2ccc(=O)[nH]c2=O)C(O)C1O (stereo not shown)	mraY (Aquifex aeolicus, UniProt O66465, F262A)	ITC	–	concentration not given, F262A mutant	–	binding stoichiometry	0.77 ± 0.07 sites
CC(Oc1cc(-c2ccccc2)nc2ccncc12)C(=O)N(C)c1ccccc1 (stereo not shown)	Tspo (Rattus norvegicus, UniProt P16257)	binding	rat brain homogenate	pKi minus clogD	–	lipophilic efficiency	5 ± 0.1
